# Experimental data of several laboratories.
# Lines come from different studies, so protocols differ. Numbers after ± are the reported error.
Compound,test system,conditions,tissue uptake
CC(C)C[C@H](NC(=O)[C@@H](CCCCNC(=O)CCCCCNC(=O)CN1CCN(CC(=O)O)CCN(CC(=O)O)CCN(CC(=O)O)CC1)NC(=O)[C@H](Cc1ccc(O)cc1)NC(=O)[C@H](CO)NC(=O)[C@H](Cc1c[nH]c2ccccc12)NC(=O)[C@H](Cc1cnc[nH]1)NC(=O)[C@@H]1CCC(=O)N1)C(=O)N[C@@H](CCCNC(=N)N)C(=O)N1CCC[C@H]1C(=O)NCC(N)=O [indium-111 labelled],"female athymic nude mouse, tumor","intravenous, 0.037 MBq, 4 h",0.15 ± 0.05 %ID/g
CCCC[C@H](NC(=O)CNC(=O)CNC(=O)CN1CCN(CC(=O)O)CCN(CC(=O)O)CCN(CC(=O)O)CC1)C(=O)N[C@H]1CC(=O)NCCCC[C@@H](C(N)=O)NC(=O)[C@H](Cc2c[nH]c3ccccc23)NC(=O)[C@H](CCCNC(=N)N)NC(=O)[C@@H](Cc2ccccc2)NC(=O)[C@H](Cc2c[nH]cn2)NC1=O [lutetium-177 labelled],"C57 mouse, female, pancreas","intravenous, 0.037 MBq, 4 h",0.24 ± 0.09 %ID/g
CSCC[C@H](NC(=O)[C@H](CC(C)C)NC(=O)[C@H](Cc1c[nH]cn1)NC(=O)CNC(=O)[C@@H](NC(=O)[C@H](C)NC(=O)[C@H](Cc1c[nH]c2ccccc12)NC(=O)[C@H](CCC(N)=O)NC(=O)CCOCCOCCOCCOCCNC(=O)CN1CCN(CC(=O)O)CCN(CC(=O)O)CCN(CC(=O)O)CC1)C(C)C)C(N)=O [indium-111 labelled],"Swiss nu/nu mouse, male, PC-3 tumour xenograft, tumour","intravenous, 10 pmol, 1 h",2.3 ± 0.5 %ID/g
Cc1cc(O)cc(C)c1C[C@H](NC(=O)[C@@H]1CCCN1C(=O)[C@H](CCCNC(=N)N)NC(=O)[C@H](CCCNC(=N)N)N(C)C(=O)[C@@H]1CCCN1C(=O)[C@H](CCCCN)NC(=O)[C@@H](CC(C)C)NC(=O)[C@@H](CC(C)C)NC(=O)[C@@H](CC(C)C)NC(=O)[C@@H](CC(C)C)NC(=O)CN1CCN(CC(=O)O)CCN(CC(=O)O)CCN(CC(=O)O)CC1)C(=O)N[C@H](C(=O)N[C@@H](CC(C)C)C(=O)O)C(C)(C)C [lutetium-177 labelled],"CF-1 mouse, kidney","iv, 370 kBq, 24 h",44 ± 6.92 %ID/g
CC(C)C[C@H](NC(=O)CN1CCN(CC(=O)O)CCN(CC(=O)O)CC1)C(=O)N[C@@H](CC(C)C)C(=O)N[C@@H](CC(C)C)C(=O)N[C@@H](CC(C)C)C(=O)N[C@@H](CCCNC(=N)N)C(=O)N[C@H](C(=O)N[C@@H](CCCCN)C(=O)N[C@@H](CCCNC(=N)N)C(N)=O)C(C)C [copper-64 labelled],"CD1 mouse, male, liver","intravenous, 15 min, blocked, unlabelled peptide 0.1 µmol",7 ± 1 %ID/g
Cc1cc(O)cc(C)c1C[C@H](NC(=O)[C@@H]1CCCN1C(=O)[C@H](CCCNC(=N)N)NC(=O)[C@H](CCCNC(=N)N)N(C)C(=O)[C@@H]1CCCN1C(=O)[C@@H](CC(C)C)NC(=O)[C@@H](CC(C)C)NC(=O)[C@@H](CC(C)C)NC(=O)[C@@H](CC(C)C)NC(=O)[C@H](CCCCN)NC(=O)CN1CCN(CC(=O)O)CCN(CC(=O)O)CCN(CC(=O)O)CC1)C(=O)N[C@H](C(=O)N[C@@H](CC(C)C)C(=O)O)C(C)(C)C [lutetium-177 labelled],"CF-1 mouse, liver","iv, 370 kBq, 24 h",4.73 ± 0.75 %ID/g
CCCC[C@H](NC(=O)CNC(=O)CNC(=O)CN1CCN(CC(=O)O)CCN(CC(=O)O)CC1)C(=O)N[C@H]1CC(=O)NCCCC[C@@H](C(N)=O)NC(=O)[C@H](Cc2c[nH]c3ccccc23)NC(=O)[C@H](CCCNC(=N)N)NC(=O)[C@@H](Cc2ccccc2)NC(=O)[C@H](Cc2c[nH]cn2)NC1=O [technetium-99m labelled],"C57 mouse, spleen","iv, 0.037 MBq, 4 h",0.11 ± 0.05 %ID/g
CC(C)[C@H](NC(=O)[C@@H]1CCCN1C(=O)[C@H](CCCNC(=N)N)NC(=O)[C@H](CS)NC(=O)[C@H](Cc1c[nH]c2ccccc12)NC(=O)[C@H](CCCNC(=N)N)NC(=O)[C@@H](Cc1ccccc1)NC(=O)[C@H](Cc1c[nH]cn1)NC(=O)[C@H](CCC(=O)O)NC(=O)[C@H](CS)NC(=O)[C@H](CS)NC(=O)[C@H](CCCCN)NC(=O)[C@@H]1CC(=O)N[C@@H](CCCNC(=N)N)C(=O)N[C@H](Cc2ccccc2)C(=O)N[C@@H](CC(=O)O)C(=O)N[C@H](Cc2ccc(O)cc2)C(=O)N1)C(N)=O [technetium-99m labelled],"C57 mouse, female, intestine","intravenous, 0.037 MBq, 24 h",0.82 ± 0.14 %ID
N=C(N)NCCC[C@@H]1NC(=O)[C@H](CCCCNC(=O)CNC(=O)CNC(=O)CNC(=O)CC[C@H](NC(=O)CNC(=O)CNC(=O)CNC(=O)CN2CCN(CC(=O)O)CCN(CC(=O)O)CCN(CC(=O)O)CC2)C(=O)NCC(=O)NCC(=O)NCC(=O)NCCCC[C@@H]2NC(=O)[C@@H](Cc3ccccc3)NC(=O)[C@H](CC(=O)O)NC(=O)CNC(=O)[C@H](CCCNC(=N)N)NC2=O)NC(=O)[C@@H](Cc2ccccc2)NC(=O)[C@H](CC(=O)O)NC(=O)CNC1=O [copper-64 labelled],"athymic nu/nu mouse, female, muscle","intravenous, 4 h",0.86 ± 0.08 %ID/g
Cc1cc(O)cc(C)c1C[C@H](NC(=O)[C@@H]1CCCN1C(=O)[C@H](CCCNC(=N)N)NC(=O)[C@H](CCCNC(=N)N)N(C)C(=O)[C@@H]1CCCN1C(=O)[C@@H](CC(C)C)NC(=O)[C@@H](CC(C)C)NC(=O)[C@H](CCCCN)NC(=O)[C@@H](CC(C)C)NC(=O)[C@@H](CC(C)C)NC(=O)CN1CCN(CC(=O)O)CCN(CC(=O)O)CCN(CC(=O)O)CC1)C(=O)N[C@H](C(=O)N[C@@H](CC(C)C)C(=O)O)C(C)(C)C [lutetium-177 labelled],"CF-1 mouse, kidney","iv, 370 kBq, 1 h",64.8 ± 10.8 %ID/g
N=C(N)NCCC[C@@H]1NC(=O)[C@H](CCCCNC(=O)CCOCCOCCOCCOCCNC(=O)CC[C@H](NC(=O)CCOCCOCCOCCOCCNC(=O)CN2CCN(CC(=O)O)CCN(CC(=O)O)CCN(CC(=O)O)CC2)C(=O)NCCOCCOCCOCCOCCC(=O)NCCCC[C@@H]2NC(=O)[C@@H](Cc3ccccc3)NC(=O)[C@H](CC(=O)O)NC(=O)CNC(=O)[C@H](CCCNC(=N)N)NC2=O)NC(=O)[C@@H](Cc2ccccc2)NC(=O)[C@H](CC(=O)O)NC(=O)CNC1=O [copper-64 labelled],"athymic nu/nu mouse, female, kidney","intravenous, 4 h",2.81 ± 0.36 %ID/g
N=C(N)NCCC[C@@H]1NC(=O)[C@H](CCCCNC(=S)Nc2ccc(CC3CN(CC(=O)O)CCN(CC(=O)O)CCN3CC(=O)O)cc2)NC(=O)[C@@H](Cc2ccc(O)cc2)NC(=O)[C@H](CC(=O)O)NC(=O)CNC1=O (stereo partly drawn) [gallium-68 labelled],"mouse BALB/c nude, female, kidney",1 h,1.05 ± 0.24 %ID/g

# Repeated from above:
Compound,test system,conditions,tissue uptake
N=C(N)NCCC[C@@H]1NC(=O)[C@H](CCCCNC(=O)CCOCCOCCOCCOCCNC(=O)CC[C@H](NC(=O)CCOCCOCCOCCOCCNC(=O)CN2CCN(CC(=O)O)CCN(CC(=O)O)CCN(CC(=O)O)CC2)C(=O)NCCOCCOCCOCCOCCC(=O)NCCCC[C@@H]2NC(=O)[C@@H](Cc3ccccc3)NC(=O)[C@H](CC(=O)O)NC(=O)CNC(=O)[C@H](CCCNC(=N)N)NC2=O)NC(=O)[C@@H](Cc2ccccc2)NC(=O)[C@H](CC(=O)O)NC(=O)CNC1=O [copper-64 labelled],"athymic nu/nu mouse, female, kidney","intravenous, 4 h",2.81 ± 0.36 %ID/g
CC(C)C[C@H](NC(=O)CN1CCN(CC(=O)O)CCN(CC(=O)O)CC1)C(=O)N[C@@H](CC(C)C)C(=O)N[C@@H](CC(C)C)C(=O)N[C@@H](CC(C)C)C(=O)N[C@@H](CCCNC(=N)N)C(=O)N[C@H](C(=O)N[C@@H](CCCCN)C(=O)N[C@@H](CCCNC(=N)N)C(N)=O)C(C)C [copper-64 labelled],"CD1 mouse, male, liver","intravenous, 15 min, blocked, unlabelled peptide 0.1 µmol",7 ± 1 %ID/g
